Experimental data pooled from the literature.
Compare with care: the assays were run in different laboratories.

SMILES | cell line | observed | technique | time | CC50 [µM]
Cc1ccccc1-n1nnnc1Sc1ccc(C(=O)c2ccccc2)cc1[N+](=O)[O-] | A549-hACE2-TMPRSS2 | – | – | 24 h | > 50
CC[C@H](C)[C@H](NC(=O)[C@H](C)NC(=O)[C@H](CCCCN)NC(=O)[C@H](CC(N)=O)NC(=O)[C@@H](NC(=O)[C@H](CCCCN)NC(=O)[C@H](CCCCN)NC(=O)[C@H](CC(C)C)NC(=O)[C@@H](NC(=O)[C@H](CCCCN)NC(=O)CNC(=O)[C@@H](NC(=O)CNC(=O)[C@H](CC(N)=O)NC(=O)[C@@H](NC(=O)CNC(=O)[C@H](Cc1ccc(O)cc1)NC(=O)[C@H](CCCNC(=N)N)NC(=O)[C@H](CCSC)NC(=O)[C@@H](NC(=O)[C@H](CCSC)NC(=O)[C@H](C)NC(=O)[C@H](CC(C)C)NC(=O)[C@H](CCC(N)=O)NC(=O)[C@H](CCCCN)NC(=O)[C@H](CCCCN)NC(=O)[C@@H](NC(=O)[C@@H](N)CCCNC(=N)N)[C@@H](C)O)C(C)C)C(C)C)C(C)C)[C@@H](C)CC)[C@@H](C)CC)C(=O)N[C@H](C(=O)N[C@@H](CO)C(=O)N[C@@H](CCCCN)C(=O)N[C@@H](CCCCN)C(=O)N[C@@H](CC(N)=O)C(=O)N[C@@H](CCCCN)C(=O)O)C(C)C | HaCaT | cell viability | MTT | – | 27.6
Cc1cc(C)c(/C=C/c2nc(N)[nH]c(=O)c2Br)c(C)c1 | CRFK | cytotoxicity | MTS | – | 58
C=C[C@@H]1C[C@]1(NC(=O)[C@@H]1C[C@@H]2CN1C(=O)[C@H](C(C)(C)C)NC(=O)O[C@@H]1C[C@H]1CCCCCc1nc3ccc(OC)cc3nc1O2)C(=O)NS(=O)(=O)C1CC1 | HEK293T | cell viability | MTT | – | > 50
CC[C@H](C)[C@H](NC(=O)[C@H](CCCNC(=N)N)NC(=O)[C@@H](NC(=O)[C@H](CC(C)C)NC(=O)[C@H](Cc1c[nH]c2ccccc12)NC(=O)[C@H](Cc1ccc(O)cc1)NC(=O)[C@@H](NC(=O)[C@H](CO)NC(=O)[C@@H](NC(=O)[C@H](CCCNC(=N)N)NC(=O)[C@H](CCC(N)=O)NC(=O)[C@H](CCCNC(=N)N)NC(=O)[C@@H]1CCCN1C(=O)[C@H](CC(C)C)NC(=O)[C@H](CO)NC(=O)[C@@H](NC(=O)[C@H](CC(C)C)NC(=O)[C@@H]1CCCN1C(=O)[C@H](CCC(N)=O)NC(=O)[C@H](CCCCN)NC(=O)[C@H](Cc1c[nH]cn1)NC(=O)[C@H](CS)NC(=O)[C@H](CCCNC(=N)N)NC(=O)[C@H](CCCCN)NC(=O)[C@H](CO)NC(=O)[C@H](CC(C)C)NC(=O)[C@H](CO)NC(=O)[C@H](Cc1ccccc1)NC(=O)[C@H](CC(C)C)NC(=O)[C@H](CCCCN)NC(=O)[C@H](Cc1c[nH]cn1)NC(=O)[C@@H](NC(=O)[C@@H](NC(=O)[C@H](CCCCN)NC(=O)[C@H](CCC(N)=O)NC(=O)[C@H](C)NC(=O)[C@H](CCCCN)NC(=O)[C@H](CC(C)C)NC(=O)[C@H](Cc1ccccc1)NC(=O)[C@H](CC(C)C)NC(=O)[C@H](CCC(N)=O)NC(=O)[C@H](CCCCN)NC(=O)[C@@H](N)CCSC)[C@@H](C)CC)C(C)C)[C@@H](C)CC)[C@@H](C)O)[C@@H](C)O)[C@@H](C)O)C(=O)O | HaCaT | cell viability | MTT | – | 47.9
COc1ccc2c(O[C@@H]3C[C@H]4C(=O)N[C@]5(C(=O)NS(=O)(=O)C6CC6)C[C@H]5/C=C\CCCCN(C)C(=O)[C@@H]4C3)cc(-c3nc(C(C)C)cs3)nc2c1C | HEK293T | cell viability | MTT | 48 (unit not given) | > 50
CCCCCc1nc(N)[nH]c(=O)c1Br | CRFK | cytotoxicity | MTS | – | > 100
CS(=O)(=O)Nc1ncn(-c2cc(F)c(COc3ccc(OS(=O)(=O)F)cc3)c(F)c2)n1 | HEK-293T | – | – | – | > 40

A few entries again:
SMILES | cell line | observed | technique | time | CC50 [µM]
Cc1ccccc1-n1nnnc1Sc1ccc(C(=O)c2ccccc2)cc1[N+](=O)[O-] | A549-hACE2-TMPRSS2 | – | – | 24 h | > 50
